Measured values of several laboratories.
Each line is one published result; not all experiments were run side by side. Several values in a cell are separate wells, animals, samples, runs or records. ± gives the spread as reported.

Structure (SMILES)	assay	system	conditions	scale	quantity	value
CC(=O)c1c(C)c2cnc(Nc3ccc(C4CCN(CCS(C)(=O)=O)CC4)cn3)nc2n(C2CCCC2)c1=O		rats plasma			unbound fraction	0.026
COc1ncnn2ccc(-c3cnc4nc(C)n(Cc5nnc([C@@H](C)F)o5)c4c3)c12		human	oral, dose not given, grade 4		patients with vomiting	0%
Clc1ccc(Cl)c(-c2ccc(Cl)c(Cl)c2Cl)c1		polyethylene-water partitioning	PCB compilation	reference: maximum over minimum K	literature range factor	1.3
Clc1ccc(Cl)c(-c2cc(Cl)ccc2Cl)c1		Sprague Dawley rat, thymus	intraperitoneal, 100 mg/kg, 3 weeks	reference: vehicle	relative organ weight	no effect
CC(C)[C@H](N)C(=O)NCCCS(=O)(=O)O		human, plasma	oral, 265 mg twice daily, week 65, steady state, extrapolated		AUC(0-12h)	11300 ng·h/mL
N.N.[Cl][Pt][Cl]		nude mouse MCF7 xenograft	5 mg/kg, day 9		body weight	14.2 ± 1.19 g
CC(C)C[C@@H]1NC(=O)[C@H](CCCCN)NC(=O)[C@H](CC(N)=O)NC(=O)[C@H](CCCNC(=N)N)NC(=O)[C@H]([C@@H](C)O)NC(=O)[C@@H]2CSSC[C@@H]3NC(=O)[C@H]([C@@H](C)O)NC(=O)CNC(=O)CNC(=O)[C@H](C(C)C)NC(=O)[C@@H]4CSSC[C@H](NC(=O)[C@H]([C@@H](C)O)NC(=O)[C@H](CSSC[C@H](NC(=O)[C@H](C(C)C)NC(=O)[C@@H]5CCCN5C1=O)C(=O)NCC(=O)N[C@@H](CCC(=O)O)C(=O)N[C@@H]([C@@H](C)O)C(=O)N4)NC(=O)CNC(=O)[C@@H]1CCCN1C(=O)[C@H]([C@@H](C)O)NC(=O)[C@H](CC(N)=O)NC3=O)C(=O)N[C@@H](CO)C(=O)N[C@@H](Cc1c[nH]c3ccccc13)C(=O)N1CCC[C@H]1C(=O)N[C@@H](C(C)C)C(=O)N2	HPLC	ammonium bicarbonate	180 µM, 14 days, pH 9.0, 25 °C, deamidation stability		remaining peptide	97.3 ± 1.1%
C[C@@H]1OC(=O)NN=C1c1ccc(-c2ccc(F)cc2)c(C(F)(F)F)c1	phase I trial, measured: Nausea all grades	human patients	20 mg loading then 1 mg daily		patients with adverse event	0%
CC(C)(c1ccccc1)c1cc(-n2nc3ccccc3n2)c(O)c(C(C)(C)c2ccccc2)c1		EpiSkin reconstructed epidermis	concentration not given, 36 h		amount in receptor fluid	not detected
O=C1Nc2cc3[nH]nc(-c4ccncc4)c3cc2CN1Cc1ccccc1	CTCAE v4.03	advanced solid tumour patients	intravenous, 0.45 mg/kg, schedules 1/2		patients with headache	0%
O=C(Nc1ccccc1)C1CCN(C(=O)Oc2cccnc2)CC1	measured: Dizziness	healthy female human	concentration not given, all doses pooled		adverse event incidence	8%
Clc1cc(Cl)c(-c2cc(Cl)c(Cl)cc2Cl)cc1Cl		fresh water	20 °C, S30-2 sampler, 30 µm		log K(PDMS-water)	6.43 ± 0.05
CCC[C@@](N)(CO)CCc1ccc(OCCCCCC(C)C)cc1		dog	oral, 10 mg/kg		Tmax	6 h
C[C@H]1COCCN1c1nc(NCc2cccnc2C(F)(F)F)c2cccnc2n1		anaesthetized rat	intravenous, 30 mg/kg	reference: control	BP change	-13.9%
O=C(Nc1ccccc1)C1CCN(C(=O)Oc2cccnc2)CC1	Bond-Lader VAS	healthy women	oral, 60 mg	reference: pre-dose baseline, direction not given	change in withdrawn–gregarious score	6.4
C[C@]1(CO)Cc2ncn(-c3ccc(C#N)c(Cl)c3)c2C(=O)O1		human, plasma	10 mg, first dose fasted		half-life	5.5 h
COc1cc2c(cc1OC)CN(CCc1ccc(NC(=O)c3cccc4c(=O)c5cccc(OC)c5[nH]c34)cc1)CC2		CD-1 mouse, male, plasma	intraperitoneal, 0.3 mg/kg		elimination rate constant	2.65e-05 s⁻¹
NCCCC[C@@H]1NC(=O)[C@@H](Cc2c[nH]c3ccccc23)NC(=O)[C@H](c2ccccc2)NC(=O)[C@@H]2C[C@@H](OC(=O)NCCN)CN2C(=O)[C@H](Cc2ccccc2)NC(=O)[C@H](Cc2ccc(OCc3ccccc3)cc2)NC1=O		healthy volunteers	subcutaneous, 1950 µg twice daily, day 5, 2.00 h		QTcI change from baseline	11.2 ms
O[C@H]1CCCN[C@@H]1CCCn1cnc2c(Cl)c(Cl)ccc21		healthy human	oral, 150 mg multiple doses		diarrhoea prevalence	29.2%
Clc1ccc(-c2ccc(Cl)cc2Cl)cc1		PDMS-water partitioning	PCB compilation	reference: maximum over minimum K	literature range factor	4

Structure (SMILES)	assay	system	conditions	scale	quantity	value
CC1(C)[C@H](C(=O)OCc2cccc(Oc3ccccc3)c2)[C@@H]1C=C(Cl)Cl	measured: CYP3A4	human, age 5 years, recombinant human CYP3A4	0.1 µM		enzyme contribution to clearance	0.75%
CN1CCN(c2ccc(Nc3nccc(-c4ccc([N+](=O)[O-])cc4)n3)cc2C(F)(F)F)CC1		zebrafish embryos	50 µM, 5 d		toxicity	18%
O=C(O)CCC(CP(=O)(O)O)C(=O)O (stereo not drawn)		rat, processed derivatized plasma	4 µg/mL, 18 h, 10 °C, autosampler stability	reference: nominal concentration	relative error	6.7%
CCOc1cc(Oc2ccc(C(F)(F)F)cc2Cl)ccc1[N+](=O)[O-]		rat, female	250 mg/kg, 4 days		final body weight	94.6 ± 2.4 g
CN[C@H]1CC[C@@H](c2ccc(Cl)c(Cl)c2)c2ccccc21		CD-1 mouse, male, lung	intraperitoneal, 0.3 mg/kg		elimination rate constant	8.63e-05 s⁻¹
O=C(O)CCCOc1ccc(F)cc1-c1cc(-c2ccccc2C(F)(F)F)n(-c2ccccc2)n1		female Crl:CD(SD) rats	intravenous, 25 µg/kg, 14 d		HCT	41.6% and 39.9% and 42.3% and 41.7% and 40%
COc1ccnc(C(=O)N[C@H]2COC(=O)[C@H](Cc3ccccc3)[C@@H](OC(=O)C(C)C)[C@H](C)OC2=O)c1OCOC(=O)C(C)C		silt loam soil	organic carbon 1.0 %, pH 5.5		organic carbon-normalised Kf (KFoc)	936 mL/g
CN1CC[C@@H](c2c(O)cc(O)c3c(=O)cc(-c4ccc(C(F)(F)F)cc4Cl)oc23)[C@@H]1CO	measured: Sepsis	B-cell malignancies	oral, 200 mg, intermittent dosing		patients with adverse event	0%
CC[C@H](C)[C@H](NC(=O)[C@H](Cc1ccccc1)NC(=O)[C@H](CCC(=O)O)NC(=O)[C@H](CCCNC(=N)N)NC(=O)[C@H](C)NC(=O)[C@H](C)NC(=O)[C@H](CCC(N)=O)NC(=O)[C@H](CCC(=O)O)NC(=O)[C@H](CCC(=O)O)NC(=O)[C@H](CC(C)C)NC(=O)[C@H](Cc1ccc(O)cc1)NC(=O)[C@H](CO)NC(=O)[C@H](CO)NC(=O)[C@@H](NC(=O)[C@H](CC(=O)O)NC(=O)[C@H](CO)NC(=O)[C@@H](NC(=O)[C@H](Cc1ccccc1)NC(=O)[C@@H](NC(=O)CNC(=O)[C@H](CCC(=O)O)NC(=O)[C@H](C)NC(=O)CCc1cnc[nH]1)[C@@H](C)O)[C@@H](C)O)C(C)C)C(=O)N[C@@H](C)C(=O)N[C@@H](Cc1c[nH]c2ccccc12)C(=O)N[C@@H](CC(C)C)C(=O)N[C@H](C(=O)N[C@@H](CCCNC(=N)N)C(=O)NCC(=O)N[C@@H](CCCNC(=N)N)C(=O)N[C@@H](CCCCNC(=O)COCCOCCNC(=O)COCCOCCNC(=O)CC[C@H](NC(=O)CCCCCCCCCCCCCCCCC(=O)O)C(=O)O)C(=O)NCC(=O)NCC(=O)N[C@@H](CO)C(=O)N[C@@H](CCCCNC(=O)[C@H](CCCCNc1c(NCCCCCN(O)C(=O)CCC(=O)NCCCCCN(O)C(=O)CCC(=O)NCCCCCN(O)C(C)=O)c(=O)c1=O)Nc1c(NCCCCCN(O)C(=O)CCC(=O)NCCCCCN(O)C(=O)CCC(=O)NCCCCCN(O)C(C)=O)c(=O)c1=O)C(=O)O)C(C)C [zirconium-89 labelled]	ex vivo gamma counting	male Sprague-Dawley rats, spleen	intravenous, 1 nmol, 24 h		tissue uptake	0.574 %ID/g
Cc1nc(-c2ccc(OCCc3cccc(F)c3)c(C(N)=O)c2)cs1		male CD-1 mouse liver microsomes	concentration not given, 30 min, pH 7.4		metabolized fraction	84%
C[C@@H](NC(=O)N1C(=O)[C@H](Cc2ccnc(N)c2)[C@H]1C(=O)O)C1CCCCC1		healthy adult Chinese volunteers	continuous intravenous infusion, 1.5 mg/kg/h, 5-day infusion, CTCAE 5.0 grading		incidence of grade 3 or higher AEs	0%
c1cc2ccc3cccc4ccc(c1)c2c34		fresh water	12 (unit not given), 20 °C, S100 sampler, 100 µm		log K(PDMS-water)	4.3 ± 0.01
CC(C)C[C@@H]1NC(=O)CNC(=O)[C@H](CC(N)=O)NC(=O)[C@H](CCCNC(=N)N)NC(=O)[C@H]([C@@H](C)O)NC(=O)[C@@H]2CSSC[C@@H]3NC(=O)[C@H]([C@@H](C)O)NC(=O)CNC(=O)CNC(=O)[C@H](C(C)C)NC(=O)[C@@H]4CSSC[C@H](NC(=O)[C@H]([C@@H](C)O)NC(=O)[C@H](CSSC[C@H](NC(=O)[C@H](C(C)C)NC(=O)[C@@H]5CCCN5C1=O)C(=O)NCC(=O)N[C@@H](CCC(=O)O)C(=O)N[C@@H]([C@@H](C)O)C(=O)N4)NC(=O)CNC(=O)[C@@H]1CCCN1C(=O)[C@H](CCCCN)NC(=O)[C@H](CC(N)=O)NC3=O)C(=O)N[C@@H](CO)C(=O)N[C@@H](Cc1c[nH]c3ccccc13)C(=O)N1CCC[C@H]1C(=O)N[C@@H](C(C)C)C(=O)N2	HPLC	ammonium bicarbonate	180 µM, 7 days, pH 9.0, 25 °C, deamidation stability		remaining peptide	95.3 ± 0.3%
CC[C@H](C)[C@@H]1NC(=O)[C@H](CCCNC(=N)N)NC(=O)C[C@@H](c2cccc3ccccc23)NC(=O)[C@@H]2CSSC[C@H](NC(=O)C[C@@H](c3cccc4ccccc34)NC(=O)[C@H](CCCNC(=N)N)NC(=O)[C@@H]3CCCN3C(=O)[C@@H]3CCCN3C1=O)C(=O)N[C@@H](Cc1ccccc1)C(=O)N1CCC[C@H]1C(=O)N[C@@H](CC(=O)O)C(=O)N[C@@H](CC(=O)O)C(=O)N[C@@H](Cc1ccccc1)C(=O)N2	two-compartment model	athymic nude mice (Foxn1)	intravenous, 6 mg/kg		terminal half-life	> 40 h
COc1cc2c(Oc3ccc4[nH]c(C)cc4c3F)ccnc2cc1OCC1(N)CC1		paediatric recurrent refractory sarcoma	10 mg		Diarrhea incidence	50%
COc1ccc2nc3cc(Cl)ccc3c(Nc3cc(CN4CCCC4)c(O)c(CN4CCCC4)c3)c2n1		mouse, blood	oral, 57 mg/kg, tolerability, mean		neutrophils	14.8%
NC(=O)[C@H]1CCN(c2ncnc(N)c2F)C[C@@H]1N1CCC[C@@H](Nc2cc(Cl)cc(C(F)(F)F)c2)C1=O		B-cell malignancy patients	oral, 246 mg twice daily, dose		any grade ≥3 adverse event	20%
CO[C@H]1C[C@@H]2CC[C@@H](C)[C@@](O)(O2)C(=O)C(=O)N2CCCC[C@H]2C(=O)O[C@H]([C@H](C)C[C@@H]2CC[C@@H](OC(=O)NCCOCCOCCOCCOCCOCCOCCOCCOCCC(=O)N3CCc4cc(Cn5nc(-c6ccc7oc(N)nc7c6)c6c(N)ncnc65)ccc4C3)[C@H](OC)C2)C[C@@H](O)[C@H](C)/C=C(\C)[C@@H](O)[C@@H](OC)C(=O)[C@H](C)C[C@H](C)/C=C/C=C/C=C/1C		patients with advanced solid tumours	intravenous, 12 mg weekly, any grade		anaemia incidence	8.3%
CCN1CCN(Cc2ccc(Nc3ncc(F)c(-c4cc(F)c5nc6n(c5c4)[C@H](C)CCC6)n3)nc2)CC1		advanced solid tumour patients	dose not given, Phase Ia monotherapy		Diarrhea incidence, any grade	54.2%
